Experimental data of several laboratories.
Target: Muscarinic acetylcholine receptor M2 (CHRM2, Homo sapiens, UniProt P08172)

CN[C@@H]1[C@H](O)[C@H](NC)[C@H]2O[C@]3(O)[C@H](O[C@@H]2[C@H]1O)O[C@H](C)C[C@H]3NC(=O)Cc1ccc(Cl)cn1 — inhibition (ligand displacement, radioligand; 10 µM): -3%
CCO[C@H]1[C@H](O)[C@@H](N)[C@@H](O[C@H]2[C@H](O[C@@H]3O[C@H](CO)[C@@H](O[C@H]4O[C@@H](CN)[C@@H](O)[C@H](O)[C@H]4N)[C@H]3O)[C@@H](O)[C@H](N)C[C@@H]2N)O[C@@H]1CO — specific binding (radioligand binding; 10 µM, 1% DMSO): 0%
Cc1cc(Nc2nc(C[C@@]3(C(=O)O)CCN(Cc4cccc(Cl)c4F)[C@H](C)C3)cc(C)c2F)[nH]n1 — inhibition (inhibitor; 10 µM): 2.06%
Cc1cc(-c2ccc3ccccc3c2)nnc1NCCN1CCN(C)CC1 — antagonist activity (antagonist; concentration not given): negative
O=C(O)c1ccc(-c2nc(-c3ccccc3Cl)c3sccn23)cc1 — specific binding (radioligand binding; 10 µM, safety screen panel; relative to: control): 114%
C/C(=N\OCCCN1CCCCC1)c1ccc(C(F)(F)F)cc1 — activation (agonist, IP-One; 10 µM): -3.24%
Cc1sc2c(c1C)C(c1ccc(Cl)cc1)=NC(CC(=O)OC(C)(C)C)c1nnc(C)n1-2 (stereo not drawn) — inhibition (ligand displacement, radioligand; 1 µM): 2%
COc1ccc(F)cc1S(=O)(=O)Nc1cnc2c(c1)C(=O)NCCO2 — inhibition (ligand displacement, radioligand; 10 µM): 1%
CS(C)(=O)=Nc1ccc(-c2ccc(-c3nc4cc(O[C@@H]5CO[C@H]6[C@@H]5OC[C@H]6O)[nH]c4cc3F)cc2)cc1 — inhibition (calcium signal, antagonist; 10 µM): -7%
CCc1nnc(-c2c(OC)cc(-c3cnc4cc(-c5cnn(C)c5)ccn34)cc2OC)o1 — remaining binding (antagonist radioligand, radioligand binding; 10 µM, SafetyScreen44 M2 replicate 2; lower = stronger displacement): 91.5%
N[C@H](C(=O)N1CCCC1)C1CCN(c2nccc3c(-c4ncc(Cl)cc4Cl)cccc23)CC1 — response (functional response, agonist; 10 µM): -5%
C[C@H](NCc1ccc(-c2ccc(C(F)(F)F)cc2)cc1)C(N)=O — inhibition of binding (radioligand binding; 1 µM, added: [3H]N-methylscopolamine 0.80 nM): -2%
C[C@@H]1COCCN1c1nc(NCc2cccnc2C(F)(F)F)c2cccnc2n1 — IC50 (binding; CEREP panel): > 100 µM
CCOC(=O)[C@](CC)(CCCSCCOCCOCCNC(=O)c1ccc(-c2c3ccc(=N)c(S(=O)(=O)O)c-3oc3c(S(=O)(=O)O)c(N)ccc23)c(C(=O)O)c1)NC(=O)c1ccc(C2CC2)c(Cc2ccc(F)cc2)n1 — inhibition (ligand displacement, radioligand; 10 µM): 8%
CCN(CC)CCOc1ccc(-c2nnn(Cc3ccc(OC)cc3)c2N)cc1 — inhibition (radioligand binding; HEK293; 10 µM, safety profiling): 41.2%

A few entries again:
CS(C)(=O)=Nc1ccc(-c2ccc(-c3nc4cc(O[C@@H]5CO[C@H]6[C@@H]5OC[C@H]6O)[nH]c4cc3F)cc2)cc1 — inhibition (calcium signal, antagonist; 10 µM): -7%
CCc1nnc(-c2c(OC)cc(-c3cnc4cc(-c5cnn(C)c5)ccn34)cc2OC)o1 — remaining binding (antagonist radioligand, radioligand binding; 10 µM, SafetyScreen44 M2 replicate 2; lower = stronger displacement): 91.5%
